# Measured values collected from several papers.
# Each numbered part is a random draw from the data of one study; scales do not carry over between parts. Positions count from the first letter of the parent shown.

# Sample 1 — target: CCNE1, cyclin fold, Cln2 fusion (human); technique: yeast growth competition, sequencing; matrix: yeast; notes: strong parent motif; reference: not given; direction: higher = stronger binding
# Starting sequence: RBL2 docking peptide (human); STTRRRLFVENDS
Variant,normalised enrichment score
L7Y,-0.342
L7E,0.459
S1G,5.38
S1M,5.53
N11T,5.49
L7S,0.33
R6G,-0.125
S1F,5.76
T3C,7.24
T2D,4.35
F8R,-0.116
R6D,0.374
S13K,5.49
L7H,0.142

# Sample 2 — technique: competition protein-binding microarray; form: double-stranded DNA, one strand shown; matrix: in vitro; concentration: 2 µM; added: Cbf1 competitor, 0.05 µM; direction: higher = stronger binding; constant ends, left off below: … GTCTTGATTCGCTTGACGCTGCTG
# Target: Phosphate system positive regulatory protein PHO4, full length, GST-tagged (PHO4, Saccharomyces cerevisiae, UniProt P07270, residues 1-312)
# Notes: whole 60-bp probe, lowest competitor level
# Residues (chain): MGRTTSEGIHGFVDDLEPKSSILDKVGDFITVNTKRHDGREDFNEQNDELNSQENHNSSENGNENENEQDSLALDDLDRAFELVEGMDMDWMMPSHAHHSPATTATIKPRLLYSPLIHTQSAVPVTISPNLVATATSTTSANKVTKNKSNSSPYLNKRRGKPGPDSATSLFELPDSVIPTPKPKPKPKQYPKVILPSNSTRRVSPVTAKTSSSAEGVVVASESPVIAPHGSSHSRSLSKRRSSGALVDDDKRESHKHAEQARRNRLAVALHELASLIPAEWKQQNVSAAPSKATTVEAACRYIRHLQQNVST
Sequence,fluorescence intensity [a.u.]
CTGTTTTTCACCTTCCACGTGGATTTTTTCGCGTTT,15700
AAATTACTAAGTTGTAGTGTGGGTGACGCCGTATGA,5000
GCTTATATCAACCGTCACGGGACTCTATCCAAGACT,5410
CTTATTCGTATGAAGCATGTGACGCTGGTATAAGAC,12100
TGCGCAACAACTTGCCAAGTGGGTGTATGTCTAGAA,4980
AAATTACTAAGTTGTGCTGTGGGTGACGCCGTATGA,5330
AAAGCGGTAATTTGTCAGGTGGGTGCAGATATCTAT,5880
CGAGGACGCCTGCTCTTTCACTTTGTATGGTGATGG,4530
CACCCCAGGAGTCTTCACATGAGCAGGAAGAATTTG,4940
TTCAGACAAATCCAACATGTGGGAGGAGAATAATGG,11800
AGTTACTATTTCTGGCTCGTGTAATATATGTATGCT,9020
TGGAGCTGTTGCGACCTTATTAGAACACCAACACTT,3520
AAAGCGGTAATTTGCGACGTGGGTGCAGATATCTAT,7540
TAGGAAGAACCGGTTCTCGTGGTGATGTCCCCCAAG,6790
ACCATCTTGACTAACAACGTGTACAACTCTTTTGAA,13900
GAGCTTCTACTAAATAACGAGCAAGCAAGGGACGCT,3300
TGCGCGCCCGCGACCCACGTGACGGTGATTCATTCG,16200
CTTCTGTAAATTTGCTTAGTGGGTGGACGCGCCCCG,3870
AACAATAGAAGAAGTGTATAGGAAAAAACTAAGGTG,3550

# Sample 3 — technique: universal PBM; form: double-stranded DNA, one strand shown; matrix: in vitro; concentration: not given; direction: higher = stronger binding
# Target: Sal-like protein 4, full length isoform B (SALL4, Homo sapiens, UniProt Q9UJQ4-2, residues 1-616)
# Notes: 8-mer, flanks averaged, mean of replicates
# Construct (chain): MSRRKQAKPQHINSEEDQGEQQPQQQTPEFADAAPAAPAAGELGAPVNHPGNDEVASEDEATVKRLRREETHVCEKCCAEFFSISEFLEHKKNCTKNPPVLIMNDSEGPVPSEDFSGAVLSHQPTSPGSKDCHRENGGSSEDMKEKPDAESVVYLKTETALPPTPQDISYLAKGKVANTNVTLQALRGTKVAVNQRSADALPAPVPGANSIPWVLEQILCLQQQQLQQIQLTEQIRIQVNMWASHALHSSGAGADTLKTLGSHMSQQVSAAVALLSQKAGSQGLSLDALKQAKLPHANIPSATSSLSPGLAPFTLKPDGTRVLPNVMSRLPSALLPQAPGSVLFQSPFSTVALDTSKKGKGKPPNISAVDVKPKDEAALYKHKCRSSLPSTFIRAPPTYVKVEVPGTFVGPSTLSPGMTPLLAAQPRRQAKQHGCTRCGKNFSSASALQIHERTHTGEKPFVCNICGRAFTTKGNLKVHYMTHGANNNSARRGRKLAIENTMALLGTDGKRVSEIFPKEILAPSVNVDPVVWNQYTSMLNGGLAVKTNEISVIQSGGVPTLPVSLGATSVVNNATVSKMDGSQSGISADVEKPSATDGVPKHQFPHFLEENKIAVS
Sequence,E-score
ACTGTACC,-0.0448
CAGTTCCA,-0.0371
CAACCGCG,-0.151
GCCTGGGA,-0.326
AAGCGCTT,0.143
AGAGACGG,-0.214
ACTATTAA,0.348
TGTGGGAA,0.0164
GATGGACA,-0.0662
ACCAGTCG,-0.0804
ACAGGCGC,-0.249
ACTCCTAC,-0.0376
AGCGCGCG,-0.266
AGGTGTCC,-0.242
CCCTGCGG,-0.307
GGGTTCTA,-0.161
TCCGGCGA,-0.208
AACTCTCT,-0.0472
CTAGTCGA,0.0439
CCTTACGC,-0.0334
CTCCCGGC,-0.344
ATTTCTCC,0.135
CGTAACAC,0.077
CCGGCACA,-0.325
ACACCCCC,-0.0983

# Sample 4 — technique: protein binding microarray; form: double-stranded DNA, one strand shown; matrix: in vitro; concentration: not given; reference: not given; direction: higher = stronger binding
# Target: Histone acetyltransferase KAT6A, winged helix 2, GST fusion (KAT6A, Homo sapiens, UniProt Q92794, residues 85-181)
# Notes: 8-mer, flanks averaged, mean of 2 arrays, mostly near background
# Target sequence (chain): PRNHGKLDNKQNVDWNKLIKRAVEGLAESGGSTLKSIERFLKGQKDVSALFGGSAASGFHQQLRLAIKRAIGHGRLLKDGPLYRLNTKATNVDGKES
Sequence,E-score
ACTACTAG,-0.0719
GAGTTGCC,0.106
GAAGCGGC,0.0572
GTCAAGAA,0.119
ATAACTGG,-0.138
CGCAGCAA,0.0807
AGATGACT,-0.303
GCGGTACA,0.11
GACACTGC,0.126
CTGAAAGC,0.0373
GATCTCGC,0.126
AGTTATCA,0.0183
CTCGCCTC,0.102
AAGACTTA,-0.197
ATTAAGAG,-0.0696
AGCACGTA,-0.142
ACTCAAAA,0.0773
GCAATGTA,-0.12
AGAGTCAC,-0.0786
CCATATGC,-0.0642
ACCACGTG,-0.167
AGCCCTAT,-0.0968
CGTATGCC,-0.0284

# Sample 5 — technique: DHFR PCA, deep sequencing; matrix: yeast; added: (+)-ABA 710 µM; reference: wild-type fitted maximum; direction: higher = stronger binding
# Target: ABI1, truncated, D143A, DHFR fusion (Arabidopsis thaliana)
# Notes: methotrexate growth selection, single substitutions
# Starting sequence: PYL1, truncated, DHFR fusion (Arabidopsis thaliana); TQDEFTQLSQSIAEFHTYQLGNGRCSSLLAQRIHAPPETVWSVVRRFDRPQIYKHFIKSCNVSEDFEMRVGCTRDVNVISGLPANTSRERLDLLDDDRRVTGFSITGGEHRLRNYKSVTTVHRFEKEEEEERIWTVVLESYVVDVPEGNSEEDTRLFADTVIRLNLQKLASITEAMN
Variant,relative binding score [%]
P37V,95.9
V70E,98.7
D75K,100
R113Q,108
Q10P,103
E130C,109
T154M,87.2
K54E,-2.59
G107N,95.7
V43Y,97.4
T39C,102
E4V,107
V137D,-3.44
T119H,28.1
A13F,94.2
V100F,86.9
